# Results pooled from the literature.
# Every numbered part comes from another study and shows a few of its results, in no order.

# Study 1
# Target: Centromere-binding protein 1, full length, N-terminal tag (CBF1, Saccharomyces cerevisiae, UniProt P17106, residues 1-351)
# Chain of UniProt P17106 (whole entry, looked up): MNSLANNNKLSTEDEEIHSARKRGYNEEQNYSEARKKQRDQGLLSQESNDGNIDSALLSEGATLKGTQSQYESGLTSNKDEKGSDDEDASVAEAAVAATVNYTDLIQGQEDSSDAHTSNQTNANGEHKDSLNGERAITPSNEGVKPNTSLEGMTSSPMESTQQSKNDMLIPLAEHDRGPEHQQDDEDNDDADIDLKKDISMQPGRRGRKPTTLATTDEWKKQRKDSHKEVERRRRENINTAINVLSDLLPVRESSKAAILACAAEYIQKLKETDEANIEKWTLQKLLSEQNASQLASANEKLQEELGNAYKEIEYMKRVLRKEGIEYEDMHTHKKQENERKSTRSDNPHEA
# Method: protein-binding microarray
# Molecule type: double-stranded DNA, one strand shown
# Medium: in vitro
# Concentration: 0.8 µM
# Notes: whole 60-bp probe, no competitor
# Direction: higher = stronger binding
Strand,fluorescence intensity [a.u.]
TGTACGAAGCTATGACACGAGGATATAGTAGTTAGGGTCTTGATTCGCTTGACGCTGCTG,664
CTAAGTGGTCGCACATACACCACCTTCTTTTTTTTCGTCTTGATTCGCTTGACGCTGCTG,522
GAAATTCGTATGAAATTGGTGACGTTAATCTAATAGGTCTTGATTCGCTTGACGCTGCTG,515

# Study 2
# Target: RNA binding protein fox-1 homolog 2, RRM domain, GST-SBP tag (RBFOX2, Homo sapiens, UniProt O43251-10, residues 100-194)
# Method: RNA Bind-n-Seq
# Molecule type: RNA
# Medium: in vitro
# Concentration: 365 nM
# Notes: natural RNA segment, single round, ends assumed
# Relative to: no-protein control
# Direction: higher = stronger binding
Strand,RBNS enrichment (R)
GGGAGUUCUACAGUCCGACGAUCUUGAAUGGCUGCCGUUUUUUCAAAGCAAUAUGAAUUUGAUGAGUUUGUUUUAUGCCAUUAGGUGGCGCCAGAGGUCAGAACAUGUCUAUUUUGAAUUGGAUCGUUACAAAUGGAAUUCUCGGGUGCCAA,0.601
GGGAGUUCUACAGUCCGACGAUCGUUUCCAAGAUGUCACGAGAAAAGCCCCAGAUGUGUACAGCACUCUAAGCAUUAACAGUCUCCCAGAAUCAAUAAUCGGUGGCAACAUAUCUCUGUAAAAACAAACACUGUGGAAUUCUCGGGUGCCAA,0.45
GGGAGUUCUACAGUCCGACGAUCCCCUGGUCUUAUAAGGGGAGGAGAGUUCAGCCCAGCACCAUAAUGCUUUAAAAAAAAAAAUUUUUUUUUUUUAACGAAUUGCUGUUCUGUCCAGAGGUUUUUAAAACUGGUGGAAUUCUCGGGUGCCAA,0.386

# Study 3
# Target: Histone acetyltransferase KAT6A, both winged helices, GST fusion (KAT6A, Homo sapiens, UniProt Q92794, residues 1-181)
# Method: protein binding microarray
# Molecule type: double-stranded DNA, one strand shown
# Medium: in vitro
# Concentration: not given
# Notes: 8-mer, flanks averaged, mean of 2 arrays, mostly near background
# Relative to: not given
# Direction: higher = stronger binding
# Target sequence (chain): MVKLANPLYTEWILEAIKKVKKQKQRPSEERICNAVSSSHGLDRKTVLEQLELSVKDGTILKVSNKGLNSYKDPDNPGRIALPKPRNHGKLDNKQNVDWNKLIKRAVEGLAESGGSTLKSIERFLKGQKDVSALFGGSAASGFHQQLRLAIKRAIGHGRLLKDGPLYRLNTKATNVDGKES
Strand,E-score
CTTTATTA,-0.0854
CAGGACCC,-0.0612
GTACGCCA,0.076

# Other studies, line by line
Substance,target,test,test system,conditions,how to read,quantity,result
"PhoQ, residues 284 288 289 292 302 303 NLMGRA","PhoP, residues 12 14 15 18 19 NMSFL (Escherichia coli, UniProt P23836)","Sort-seq, refers to: YFP reporter",E. coli,"PhoQ-PhoP variant library, added: 10 µM Mg2+","relative to: high Mg2+ state, higher = stronger signaling",fold induction,11.2

# Repeated from above (study 1):
Strand,fluorescence intensity [a.u.]
CTAAGTGGTCGCACATACACCACCTTCTTTTTTTTCGTCTTGATTCGCTTGACGCTGCTG,522
